Assay results collected from several papers.
Parts stem from different laboratories: compare values within a part only.

Set 1 — technique: Sort-seq; item: YFP reporter; sample: E. coli; notes: PhoQ-PhoP variant library; together with: 10 µM Mg2+; reference: high Mg2+ state; reading: higher = stronger signaling
Substance: PhoQ, residues 284 288 289 292 302 303 AGHLVA
target	fold induction
PhoP, residues 12 14 15 18 19 NFFVT (Escherichia coli, UniProt P23836)	16.5
PhoP, residues 12 14 15 18 19 TPWTL (Escherichia coli, UniProt P23836)	0.646
PhoP, residues 12 14 15 18 19 LHHYF (Escherichia coli, UniProt P23836)	5.37

Set 2 — technique: EMSA with sequencing; form: double-stranded DNA, one strand shown; sample: in vitro; tested at: 10 and 20 nM; reference: negative control set to 0; reading: higher = stronger binding
Target: Hepatocyte nuclear factor 3-alpha (Foxa1, Mus musculus, UniProt P35582, residues 1-468, full length assumed)
Notes: whole designed probe, mean of two concentrations, ends assumed
Constant ends, left off below: GTGAGCGGTGCCCATTGATGGGGAAC … TTTCACTGGGATCGTGGGGAC
Residues (chain): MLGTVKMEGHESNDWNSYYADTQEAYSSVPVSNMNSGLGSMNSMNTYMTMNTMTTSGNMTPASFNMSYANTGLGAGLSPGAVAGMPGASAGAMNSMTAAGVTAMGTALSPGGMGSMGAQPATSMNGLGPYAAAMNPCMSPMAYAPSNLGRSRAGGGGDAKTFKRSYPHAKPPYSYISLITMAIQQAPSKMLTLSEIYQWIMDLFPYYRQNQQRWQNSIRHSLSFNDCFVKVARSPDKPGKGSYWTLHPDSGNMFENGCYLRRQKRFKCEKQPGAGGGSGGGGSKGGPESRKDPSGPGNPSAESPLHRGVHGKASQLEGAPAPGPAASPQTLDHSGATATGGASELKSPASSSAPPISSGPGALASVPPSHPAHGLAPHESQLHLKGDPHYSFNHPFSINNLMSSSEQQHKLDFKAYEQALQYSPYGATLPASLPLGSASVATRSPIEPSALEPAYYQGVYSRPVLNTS
Strand	normalised bound fraction [ratio]
ATCTTCCCCCTCTTCCTTGCCCCACCAGCTCACCTTCCCGGGTCAAAGTAAACAAGTGTTTACTTTGAAGCCGGCATTCGTTAACCCTCTTCTGGCGCAAACTGCCAAAGTAAACAGATCTAACATGGTCCTTTGGCGACGCCAGGCTCCGGGAGAGCAAAGCACCGTGTCAGGGCCATGATCCGGGGTGGCC	0.533
TGATGAGAAACATGATAATTATTTAGTCTGAAAGGATCTTCTCCAATAATTTTTTTTTGTCGTGATACATTCCTGACTTCTCCACCCCCAAATGCAATCTAACCTAAATTGAGGGAAATTCTATGCAATACCTAACCATTATTCATCAAATGTACTCTGGAGTACAGTGACACAATCATGGTTCACTGTAACC	-0.0615
GCGACGGCGCCCAATGAGCGGCCAGGATGTTGGAGCGCCGGCGGCGGTCCGGGCGCTCGCTGGCTGAGGGACGGCGGCCGCCGCCATGATGCTAGATTGCTTTCAATGAAAACGAGGGGGGCGCGGAGGAGGAGGCGGCGGCGTCGGTGGCGGCGGCGACGGCGGCGCGGAGGCGAAGGCAGCGGCGGGCGCA	0.0984
AAGCAATACATGTTGTCAAAATACAGTGGCAACGGGAACCGAATAGATGTGAAGCAATGAGTGAGCCACCAATTACTAAAATATGTGGTCCTGAGTAATCTAGAGCTTAACGGAGAGATGAGAGGCGCCTGTGAAGTTGGAAAAGGTGGGCATAAGAATGTGTGCTAACTAGACCTGAAGTCTAGGCCGGCTG	-0.0331
TAAGTACTGCTATTTTATTTTTTACCATAAAAGAGTTGTGTACACACACACAGTGTGCTTGTGCAAATATACTACACAGACACAAGTGTGGCTTATTTACCCTTGTGAAGTAAGTTATTTGAAAGAAAACATTGCCTTATTCACATTGTATCTCCTACAATGTGTTGTGCATAATGAAACAATAAATATTTAT	0.443

Set 3 — technique: competition protein-binding microarray; form: double-stranded DNA, one strand shown; sample: in vitro; tested at: 2 µM; together with: Pho4 competitor, 0.05 µM; reading: higher = stronger binding; constant ends, left off below: … GTCTTGATTCGCTTGACGCTGCTG
Target: Centromere-binding protein 1, full length, His-tagged (CBF1, Saccharomyces cerevisiae, UniProt P17106, residues 1-351)
Sequence of UniProt P17106 (whole entry, looked up): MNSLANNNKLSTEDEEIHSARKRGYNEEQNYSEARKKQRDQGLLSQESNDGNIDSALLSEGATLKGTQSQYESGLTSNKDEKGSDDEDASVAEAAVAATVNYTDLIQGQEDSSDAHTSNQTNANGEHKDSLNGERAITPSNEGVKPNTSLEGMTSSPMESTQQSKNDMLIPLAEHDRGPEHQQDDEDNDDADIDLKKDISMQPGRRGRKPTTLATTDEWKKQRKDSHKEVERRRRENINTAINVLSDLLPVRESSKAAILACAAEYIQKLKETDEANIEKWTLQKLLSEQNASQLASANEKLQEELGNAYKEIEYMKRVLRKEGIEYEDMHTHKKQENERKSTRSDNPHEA
Notes: whole 60-bp probe, lowest competitor level
Strand	fluorescence intensity
CGTCCTAGTGATTGTTTAGTGGGTGCCATGAGGAAG	99.7 a.u.
GTCTTGTCTCATTGACTCGTGGGTGTCCCCACTTCA	84.1 a.u.
GTATTTTTTGTTTTTCACGTGATGGAATCGGCTTCG	3240 a.u.
GTCTTGTCTCATTATCACGTGTTTTTCCCCACTTCA	4190 a.u.
TCAGAGAACAGGAAGCATGTGCTCAGTGCACAGGCG	178 a.u.
ACATCATTCAAGCTAAGCGTGATGGCAAGGCTGCTG	101 a.u.
AGTATATCTGATCCGCACGTGATGGCCACTTAATCG	2920 a.u.
GTCTTGTCTCATTGTCACAGAACTTTCCCCACTTCA	93.3 a.u.
TGCTAGAATACATCGCACGGCTCGCGGAAAGCAACC	56.6 a.u.
CTTTCCCGATCTTGGGTTGTGGGTGTAGCACATTTG	77.4 a.u.
AAAGCGGTAATTTGTCGAGTGGGTGCAGATATCTAT	71 a.u.
CGTCCTAGTGATTGTTCCGTGGGTGCCATGAGGAAG	87.8 a.u.
ATAGCTCAAGTACTGTTCGTGGGTACCTTAAGCCTG	115 a.u.
TGCGCAACAACTTGTCACATCACTTTATGTCTAGAA	87.6 a.u.
CTTTCCCGATCTTGAAGGGTGGGTGTAGCACATTTG	70.5 a.u.
TCAATCTTTGTTCGTCAGGTGGGATACCTTCCTTGT	157 a.u.

Set 4 — technique: aptamer microarray, sandwich; form: DNA with 2'F-ANA; sample: in vitro; tested at: 200 nM; together with: Cy3 exosite-II aptamer, 400 nM; reading: higher = stronger binding; strand: GGTTGGTGTGGTTGG
Target: Prothrombin, mature alpha-thrombin (F2, Homo sapiens, UniProt P00734)
Notes: whole 15-mer aptamer, many near background
Modification	mean fluorescence intensity
2'F-ANA at 1 2 3 5 6 9	66.7 a.u.
2'F-ANA at 2 5 6 9 10 12 14 15	47 a.u.
2'F-ANA at 1 7 8 10 11 13	56.1 a.u.
2'F-ANA at 2 3 6 8 9 11 12 14	390 a.u.
2'F-ANA at 2 3 4 12 13 15	703 a.u.
2'F-ANA at 3 4 7 8 10 11 12 14	231 a.u.
2'F-ANA at 1 2 4 5 7 8 10 13 15	55.2 a.u.
2'F-ANA at 2 3 5 6 9 10 11 15	50.2 a.u.
2'F-ANA at 1 3 4 5 6 13	57.2 a.u.
2'F-ANA at 2 3 5 6 8 9 10	59.4 a.u.
2'F-ANA at 1 2 4 5 7 10 13 14	47.8 a.u.
2'F-ANA at 2 4 5 6 7 9 14	52.1 a.u.
2'F-ANA at 1 2 3 4 8 9 12 14 15	89.4 a.u.
2'F-ANA at 3 5 7 8 14 15	99.2 a.u.
2'F-ANA at 1 2 3 4 5 6 10 13	50.9 a.u.
2'F-ANA at 1 3 4 5 6 7 9 10 11 12	50.6 a.u.
2'F-ANA at 1 3 4 8 15	288 a.u.
2'F-ANA at 2 6 9 11 13 15	224 a.u.

Set 5 — technique: RNA Bind-n-Seq; form: RNA; sample: in vitro; tested at: 365 nM; reference: no-protein control; reading: higher = stronger binding
Target: RNA binding protein fox-1 homolog 2, RRM domain, GST-SBP tag (RBFOX2, Homo sapiens, UniProt O43251-10, residues 100-194)
Notes: natural RNA segment, single round, ends assumed
Constant ends, left off below: GGGAGUUCUACAGUCCGACGAUC … UGGAAUUCUCGGGUGCCAA
Strand	RBNS enrichment (R)
CCUCCGACACCCAUCCCACUCCCAACCACCAAGACCCUGGGUUAGGGAAGAAGUUGUAUCUUAAGUGCCACCUUCAAGUUUCUUAGUGGUGCCUGGUGCAUUCCGAGGCU	0.586
AAUGCAAAGAUCUUGCCCCUGCCAGUGGCAAGUGCCGACAAACCAAGUGCCUGUAGGCUCCUGGGACUCUGCAGCUAGGUAAAGAGUUCUAAGUUCAUCUGGCCCACGUG	0.773
AAAAUGAUUCCAUUAAUCUUACUCAGAAGACAAAUAAGGAGGUUCUGAUGAAAUCUCUGAAAAAAAAUAAUAAUUUCACACCAUGGCUGCCCUAAAAGGAUCAUUUUAGU	0.529
CCUUCCUGCUUUUCACCAGGAACUCUAGACUGGACGCAGUCUUCUUCCUACUGGCUGGGGUUUCUCCCUCACUCUGCCUCCCAAACACAAUAAAUACAUAGUUGCCCACC	0.361
GGGAUGGAAAGCGCAUGGGCCUGUGUCCAUUGUAGAUUUCCUUCUAGAUUUCUGUGUACACACACUUGAUUGUUCUGGAUGAAUGUCUUUUUUAAUACUCCGAAAAUUUC	3.19
CAUAUCAAAGUAUAAUUGAUGGGGGCCUUGUUUUGUUUUGUUUUGGUUUUUGGAGACAGGGUCUCACUGUGUAGUCCUAGCUGGCCUGGAACUCACUAUGUAGAUCAGGC	1.91
GUUGGCUUUUAUUUGGAUUUUUUCAUCUCAGUUUUUUCUGUGGAAUCUCCUUCAUUGGCAUUGUUAUUUAAUCAUAAACGGGGCAGAUGUCUACUUGUUCAGUUUUUCAA	0.41
GAAUGUAUGCAAUGUGUAAAAAAUGCAAAUGGCUGUAUGCAUUGAAUAAAAAUAAUAUACAAUUAGAGUAAGAAGUUUGUUUUUUCCCUUUCCUAUUCUCUUCCUUUCUC	1.12

Some of these lines once more (set 3):
Strand	fluorescence intensity
AGTATATCTGATCCGCACGTGATGGCCACTTAATCG	2920 a.u.
ACATCATTCAAGCTAAGCGTGATGGCAAGGCTGCTG	101 a.u.
CGTCCTAGTGATTGTTCCGTGGGTGCCATGAGGAAG	87.8 a.u.
